Measurements of several laboratories.
Values joined by “and” are separate records of one study, mostly repeats; a detail may differ. ± marks the error that the study gave.
UniProt P22736, sequence (whole entry, looked up): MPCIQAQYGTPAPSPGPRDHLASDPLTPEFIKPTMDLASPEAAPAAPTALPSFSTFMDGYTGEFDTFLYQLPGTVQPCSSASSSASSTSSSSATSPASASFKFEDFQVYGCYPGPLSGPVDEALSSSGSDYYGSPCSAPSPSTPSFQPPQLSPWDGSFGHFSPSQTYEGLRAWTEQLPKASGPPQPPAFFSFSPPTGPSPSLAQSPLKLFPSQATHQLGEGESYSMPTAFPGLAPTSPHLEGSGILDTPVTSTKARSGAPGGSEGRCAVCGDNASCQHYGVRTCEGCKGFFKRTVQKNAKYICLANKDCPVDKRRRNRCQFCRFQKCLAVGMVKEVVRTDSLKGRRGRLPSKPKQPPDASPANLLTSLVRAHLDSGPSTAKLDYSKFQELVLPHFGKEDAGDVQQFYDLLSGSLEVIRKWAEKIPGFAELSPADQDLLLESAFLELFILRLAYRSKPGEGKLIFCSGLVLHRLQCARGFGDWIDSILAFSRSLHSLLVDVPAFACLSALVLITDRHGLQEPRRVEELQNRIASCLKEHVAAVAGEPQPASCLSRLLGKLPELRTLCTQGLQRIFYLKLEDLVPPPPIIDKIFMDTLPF
UniProt P40337, sequence (whole entry, unmodified, looked up): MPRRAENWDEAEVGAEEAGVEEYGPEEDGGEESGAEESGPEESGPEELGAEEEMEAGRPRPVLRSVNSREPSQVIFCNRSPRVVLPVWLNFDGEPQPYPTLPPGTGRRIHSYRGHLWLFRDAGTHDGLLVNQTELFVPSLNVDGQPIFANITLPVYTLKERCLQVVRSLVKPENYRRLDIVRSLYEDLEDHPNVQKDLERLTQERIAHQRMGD
UniProt P00441, sequence (whole entry, unmodified, looked up): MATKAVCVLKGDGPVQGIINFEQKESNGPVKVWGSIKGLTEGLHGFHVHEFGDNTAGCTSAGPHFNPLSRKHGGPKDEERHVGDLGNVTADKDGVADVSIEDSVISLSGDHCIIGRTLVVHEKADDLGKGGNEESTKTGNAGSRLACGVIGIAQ
UniProt Q96SW2, sequence (whole entry, looked up): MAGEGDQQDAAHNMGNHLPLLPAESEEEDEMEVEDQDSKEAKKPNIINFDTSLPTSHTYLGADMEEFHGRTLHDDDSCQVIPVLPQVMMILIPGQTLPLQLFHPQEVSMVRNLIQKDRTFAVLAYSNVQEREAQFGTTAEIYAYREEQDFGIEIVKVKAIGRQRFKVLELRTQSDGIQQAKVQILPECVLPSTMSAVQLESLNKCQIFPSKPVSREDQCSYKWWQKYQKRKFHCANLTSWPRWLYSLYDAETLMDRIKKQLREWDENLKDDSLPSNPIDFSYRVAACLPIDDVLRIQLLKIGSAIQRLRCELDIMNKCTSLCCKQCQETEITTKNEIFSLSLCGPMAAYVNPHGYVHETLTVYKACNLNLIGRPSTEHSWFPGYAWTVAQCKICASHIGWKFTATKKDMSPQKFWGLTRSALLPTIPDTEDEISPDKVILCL
UniProt Q9NSD7, sequence (whole entry, looked up): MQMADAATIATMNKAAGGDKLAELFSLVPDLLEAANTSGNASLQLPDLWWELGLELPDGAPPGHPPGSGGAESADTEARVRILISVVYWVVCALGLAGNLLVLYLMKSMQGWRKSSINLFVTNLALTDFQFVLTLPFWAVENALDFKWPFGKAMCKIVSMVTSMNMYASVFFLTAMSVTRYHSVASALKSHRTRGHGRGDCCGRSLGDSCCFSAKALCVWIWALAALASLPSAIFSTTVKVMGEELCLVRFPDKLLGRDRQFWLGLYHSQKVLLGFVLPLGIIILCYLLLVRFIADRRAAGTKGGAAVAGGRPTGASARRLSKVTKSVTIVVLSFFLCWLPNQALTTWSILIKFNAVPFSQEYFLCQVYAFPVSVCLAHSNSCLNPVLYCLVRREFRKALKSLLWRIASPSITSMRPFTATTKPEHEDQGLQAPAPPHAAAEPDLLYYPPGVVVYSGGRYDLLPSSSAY
UniProt Q9UQD0, sequence (whole entry, looked up): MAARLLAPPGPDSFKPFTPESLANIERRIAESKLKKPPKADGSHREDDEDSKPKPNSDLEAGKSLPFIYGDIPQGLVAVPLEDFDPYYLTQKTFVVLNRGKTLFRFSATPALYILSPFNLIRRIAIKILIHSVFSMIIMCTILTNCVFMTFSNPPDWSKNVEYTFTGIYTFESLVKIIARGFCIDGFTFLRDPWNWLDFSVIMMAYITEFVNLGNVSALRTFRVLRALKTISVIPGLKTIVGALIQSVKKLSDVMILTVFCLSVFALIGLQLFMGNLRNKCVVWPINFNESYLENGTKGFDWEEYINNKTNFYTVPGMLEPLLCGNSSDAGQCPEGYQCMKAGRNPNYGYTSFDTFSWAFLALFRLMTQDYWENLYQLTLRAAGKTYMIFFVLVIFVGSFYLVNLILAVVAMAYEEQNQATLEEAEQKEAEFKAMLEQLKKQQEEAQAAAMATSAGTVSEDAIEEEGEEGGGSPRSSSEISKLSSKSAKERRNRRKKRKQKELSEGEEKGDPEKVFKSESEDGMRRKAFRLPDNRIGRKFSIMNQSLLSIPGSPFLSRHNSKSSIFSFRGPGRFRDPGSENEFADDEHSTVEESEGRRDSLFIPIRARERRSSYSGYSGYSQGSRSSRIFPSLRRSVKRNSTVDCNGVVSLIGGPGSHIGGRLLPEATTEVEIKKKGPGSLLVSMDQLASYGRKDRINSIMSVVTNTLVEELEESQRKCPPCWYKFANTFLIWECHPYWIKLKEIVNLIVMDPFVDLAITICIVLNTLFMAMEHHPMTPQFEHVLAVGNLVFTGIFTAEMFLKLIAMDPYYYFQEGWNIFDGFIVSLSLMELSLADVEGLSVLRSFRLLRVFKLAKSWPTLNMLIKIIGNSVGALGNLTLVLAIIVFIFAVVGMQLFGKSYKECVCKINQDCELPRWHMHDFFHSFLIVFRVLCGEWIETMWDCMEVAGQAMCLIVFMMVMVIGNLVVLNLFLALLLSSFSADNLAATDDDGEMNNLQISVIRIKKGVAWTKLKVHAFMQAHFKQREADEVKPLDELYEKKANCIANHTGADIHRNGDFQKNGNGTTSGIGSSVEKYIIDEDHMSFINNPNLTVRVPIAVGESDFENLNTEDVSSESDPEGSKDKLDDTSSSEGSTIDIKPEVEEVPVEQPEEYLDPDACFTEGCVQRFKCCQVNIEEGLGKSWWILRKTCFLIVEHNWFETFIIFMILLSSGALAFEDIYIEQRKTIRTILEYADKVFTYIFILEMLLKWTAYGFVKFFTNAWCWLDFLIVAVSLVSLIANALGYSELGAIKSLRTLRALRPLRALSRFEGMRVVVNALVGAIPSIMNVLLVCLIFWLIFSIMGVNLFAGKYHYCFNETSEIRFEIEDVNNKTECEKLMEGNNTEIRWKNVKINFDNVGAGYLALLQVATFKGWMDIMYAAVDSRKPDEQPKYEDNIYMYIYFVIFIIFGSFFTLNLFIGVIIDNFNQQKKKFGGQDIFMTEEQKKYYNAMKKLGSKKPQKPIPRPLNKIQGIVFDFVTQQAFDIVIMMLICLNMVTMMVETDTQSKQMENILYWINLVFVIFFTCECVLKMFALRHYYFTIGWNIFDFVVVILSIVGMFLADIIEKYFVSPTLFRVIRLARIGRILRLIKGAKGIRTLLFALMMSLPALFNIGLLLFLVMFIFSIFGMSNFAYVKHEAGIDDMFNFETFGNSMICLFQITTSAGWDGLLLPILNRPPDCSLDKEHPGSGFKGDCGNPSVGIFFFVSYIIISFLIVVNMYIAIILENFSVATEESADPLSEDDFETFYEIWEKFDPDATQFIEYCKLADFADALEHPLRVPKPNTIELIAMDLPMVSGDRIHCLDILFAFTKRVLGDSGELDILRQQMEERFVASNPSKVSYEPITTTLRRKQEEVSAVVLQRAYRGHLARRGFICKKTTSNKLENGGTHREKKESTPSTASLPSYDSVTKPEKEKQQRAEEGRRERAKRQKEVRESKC
UniProt Q9QUR6, sequence (whole entry, looked up): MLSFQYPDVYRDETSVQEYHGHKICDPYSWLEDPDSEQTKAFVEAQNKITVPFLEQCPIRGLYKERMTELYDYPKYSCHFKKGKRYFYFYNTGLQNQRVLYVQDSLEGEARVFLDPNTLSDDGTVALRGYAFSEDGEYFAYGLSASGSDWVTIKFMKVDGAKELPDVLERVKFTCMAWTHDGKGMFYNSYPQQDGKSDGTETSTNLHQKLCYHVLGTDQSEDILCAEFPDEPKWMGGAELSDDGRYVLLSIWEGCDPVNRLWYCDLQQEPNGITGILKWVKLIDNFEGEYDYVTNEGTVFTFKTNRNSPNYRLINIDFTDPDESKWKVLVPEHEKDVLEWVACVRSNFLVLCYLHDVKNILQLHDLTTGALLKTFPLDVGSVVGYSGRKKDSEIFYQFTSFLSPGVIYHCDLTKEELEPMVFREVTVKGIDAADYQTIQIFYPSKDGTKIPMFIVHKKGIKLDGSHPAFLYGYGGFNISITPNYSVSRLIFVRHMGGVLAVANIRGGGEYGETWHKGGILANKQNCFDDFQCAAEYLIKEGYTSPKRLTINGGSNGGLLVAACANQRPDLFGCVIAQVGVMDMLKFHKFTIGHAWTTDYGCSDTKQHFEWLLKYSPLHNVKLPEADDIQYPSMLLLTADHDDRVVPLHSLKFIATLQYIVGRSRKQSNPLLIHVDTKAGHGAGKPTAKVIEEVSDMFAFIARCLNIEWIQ
UniProt P48729, sequence (whole entry, looked up): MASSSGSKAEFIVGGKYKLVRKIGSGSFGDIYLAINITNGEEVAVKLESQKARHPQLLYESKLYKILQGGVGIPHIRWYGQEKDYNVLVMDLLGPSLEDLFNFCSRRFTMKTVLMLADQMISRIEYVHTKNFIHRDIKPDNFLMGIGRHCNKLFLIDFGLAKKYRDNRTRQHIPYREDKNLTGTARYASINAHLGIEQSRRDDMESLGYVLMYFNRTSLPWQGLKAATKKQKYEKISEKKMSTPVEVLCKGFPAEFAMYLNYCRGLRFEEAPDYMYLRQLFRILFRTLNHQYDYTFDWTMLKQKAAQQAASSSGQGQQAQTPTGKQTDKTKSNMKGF

SMILES	target	test	test system	setting	how to read	endpoint	value
Nc1ncnc2c1ncn2[C@@H]1O[C@H](C[C@@H](N)CC[C@H](N)C(=O)O)[C@@H](O)[C@H]1O	O-methyltransferase (Sorghum bicolor, UniProt A0A1B6PFV1)	–	–	concentration not given, with: PTR+	–	ΔH of binding	-9.5 ± 0.224 kcal/mol
CC(=O)N[C@H](C(=O)N1C[C@H](O)C[C@H]1C(=O)NCc1ccc(-c2scnc2C)cc1)C(C)(C)SCCCCCCNC(=O)C[C@@H]1N=C(c2ccc(Cl)cc2)c2c(sc(C)c2C)-n2c(C)nnc21	VHL/BRD3, BD1; with Elongin B/C (Homo sapiens, UniProt P40337+Q15059)	ternary complex binding, ITC	–	25 °C, with: VHL-ElonginB-ElonginC titrated into compound:PROTAC:Brd3^BD1 complex	–	ΔG	-9.12 ± 0.01 kcal/mol
N=C(N)NCCC[C@H](N)C(=O)O	uncharacterized protein (Pelagibacter ubique, UniProt Q4FLC2)	binding, isothermal titration calorimetry	Candidatus Pelagibacter ubique	two-sets-of-sites model, site 1, with: E108A mutant competing protein	–	Ka	2.71e+10 M⁻¹ and 5.28e+10 M⁻¹ and 3.09e+10 M⁻¹
O=C(CCCc1ccccc1)C(=O)NCCc1ccc(Oc2ccc(C(F)(F)F)cn2)cc1	Prolyl endopeptidase (Mus musculus, UniProt Q9QUR6)	inhibitor, item: PPCE	mouse, BAT cytosol proteome	10 µM	relative to: DMSO, lower = stronger inhibition	probe-enriched protein abundance	115000 a.u.
O=C1CCC(N2Cc3cc(NC(=O)C4CCCCC4)ccc3C2=O)C(=O)N1 (stereo not drawn)	Cereblon/Casein kinase I alpha (CSNK1A1/CRBN, Homo sapiens, UniProt P48729+Q96SW2)	degrader, live-cell HiBiT kinetics	HEK293 LgBiT	10 µM	–	degradation rate constant	0.86 h⁻¹
CCNC(=O)/C=C/c1cccc(Br)c1	SLC6A19 (Homo sapiens, UniProt Q695T7)	inhibitor, L-[14C]leucine uptake	CHO-BC cells	0.3 µM, 6 min, unit not given, with: GPNA 3 mM, JPH203 3 µM	relative to: uninhibited cells	remaining transport activity	0.738
[O-][S+]1CCCCS1 (stereo not drawn)	SOD1 (Homo sapiens, UniProt P00441, G94A)	LC-MS	human whole blood	1000 µM, 1 h, 37 °C	–	SOD1 dimer fraction	77.3%
CC1(C)CC2(C)OC(=O)NC2(C)c2ccccc21 (stereo not drawn)	FBXW7 (Homo sapiens, UniProt Q969H0)	binding, affinity selection mass spectrometry	–	–	relative to: other proteins in batch	fold enrichment	0.984
O=C(Nc1ccc(-c2nc(-c3ccc(Cl)cc3)no2)cc1)C1CC(=O)N(Cc2ccco2)C1 (stereo not drawn)	RXFP3 (Homo sapiens, UniProt Q9NSD7)	antagonist	CHO-K1 membranes	with: relaxin-3	–	Emax	decreased
Cc1cccc(NC(=O)Cn2cc(CO)c3ccccc32)c1	Sodium channel protein type 8 subunit alpha, C-terminal domain (SCN8A, Homo sapiens, UniProt Q9UQD0)	binder, SPR	–	–	–	koff	0.0292 ± 8.4e-05 s⁻¹
COCCOCc1ccc(-c2cc3onc(-c4ccccc4)c3c(=O)n2C)cc1	Nuclear receptor subfamily 4 group A member 1 (NR4A1, Homo sapiens, UniProt P22736)	reporter gene, NBRE reporter full-length	–	3 µM	relative to: vehicle	activation	1.41 fold
CC(=O)N[C@H](C(=O)N[C@@H](CC(N)=O)C(=O)N[C@@H](CCCCN)C(=O)N[C@@H](C)C(=O)N[C@@H](CC(C)C)C(=O)N1CCC[C@H]1C(=O)N[C@@H](C)C(=O)N[C@@H](CC(C)C)C(=O)N1CCC[C@H]1C(=O)N[C@H](C(=O)N[C@@H](C)C(N)=O)C(C)C)C(C)C	High osmolarity signaling protein SHO1, SH3 domain (SHO1, Saccharomyces cerevisiae, UniProt P40073)	binding, isothermal titration calorimetry	50 mM sodium phosphate, 100 mM NaCl	pH 7.0, 25 °C	–	-TΔS	2.53 ± 0.0717 kcal/mol

A few entries again:
SMILES	target	test	test system	setting	how to read	endpoint	value
CC(=O)N[C@H](C(=O)N1C[C@H](O)C[C@H]1C(=O)NCc1ccc(-c2scnc2C)cc1)C(C)(C)SCCCCCCNC(=O)C[C@@H]1N=C(c2ccc(Cl)cc2)c2c(sc(C)c2C)-n2c(C)nnc21	VHL/BRD3, BD1; with Elongin B/C (Homo sapiens, UniProt P40337+Q15059)	ternary complex binding, ITC	–	25 °C, with: VHL-ElonginB-ElonginC titrated into compound:PROTAC:Brd3^BD1 complex	–	ΔG	-9.12 ± 0.01 kcal/mol
